Published values collected from several papers.
Each numbered part is a random draw from the data of one study; scales do not carry over between parts. Positions count from the first letter of the parent shown.

Study 1 — target: CCNE2, cyclin fold, Cln2 fusion (human); technique: yeast growth competition, sequencing; medium: yeast; notes: weak parent motif; relative to: not given; reading: higher = stronger binding; quantity: normalised enrichment score
Parent: SLBP docking peptide (human); ARYKRKLLINDFG
R2G: 1.16
K4L: 1.42
R2P: 0.437
R2Y: 1.12
K6N: 1.59
D11E: 0.78
R5H: 0.878
D11V: 1.15
K4F: 1.13
D11S: -0.0807
N10T: 0.812
R2C: 0.182
R2W: 1.01
N10Y: 0.617
F12G: 0.504
R2T: 0.972
G13A: -0.0704
I9Y: 1.72
G13T: 0.365

Study 2 — technique: protein-binding microarray; molecule type: double-stranded DNA, one strand shown; medium: in vitro; tested at: 2540 nM top; notes: 60-bp whole probe; with: salmon DNA 0.4 mg/ml; relative to: random background probes; reading: higher = stronger binding; quantity: fitted relative affinity; shared flanks, not repeated: GCCTAGCAC … GTCTTGATTCGCTTGACGCTGCTG
Target: Interferon regulatory factor 3, full length, phosphomimetic (IRF3, Homo sapiens, UniProt Q14653, residues 1-427, S386D/S396D/S398D/S402D/T404D/S405D)
Residues (chain): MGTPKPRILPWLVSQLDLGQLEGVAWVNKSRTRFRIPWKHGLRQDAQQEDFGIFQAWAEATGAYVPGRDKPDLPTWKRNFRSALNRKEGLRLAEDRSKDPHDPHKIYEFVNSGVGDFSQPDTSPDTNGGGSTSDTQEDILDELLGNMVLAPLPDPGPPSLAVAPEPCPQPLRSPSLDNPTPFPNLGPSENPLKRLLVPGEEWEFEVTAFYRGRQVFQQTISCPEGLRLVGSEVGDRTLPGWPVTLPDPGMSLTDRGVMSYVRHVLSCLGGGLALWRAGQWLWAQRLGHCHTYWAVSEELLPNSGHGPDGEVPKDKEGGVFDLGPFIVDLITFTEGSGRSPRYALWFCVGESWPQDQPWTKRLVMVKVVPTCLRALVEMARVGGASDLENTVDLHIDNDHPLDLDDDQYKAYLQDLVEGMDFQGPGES
CTGCCTGTCCATTCCTTCCAGTGCTAG: 0.658 z-score
TTAGATATGGGGTTTCGATTAGTGCTA: 1.45 z-score
TTAAATCTCAGTCTCGATTAGTGCTAG: 0.635 z-score
TTGGATTTCAGTTCCGATTAGTGCTAG: 3.24 z-score
GACGATTCCAGTATCGAGACGTGCTAG: 1.31 z-score
TCACATGTCTGTGTCACACTGTGCTAG: 0.613 z-score
CTCTTCTTTTTTTTCTTTAAGTGCTAG: 2.15 z-score
GGGTGTGTGAGTGTGTGTGCGTGCTAG: -1.07 z-score
TTAGATTCCAGTTTCGATTCGTGCTAG: 6.39 z-score
GAATCTCTCATGTTACATTTGTGCTAG: 0.649 z-score
TCATGTTTGTGTGTGTAACTGTGCTAG: -0.162 z-score
GACGAACAGAGTTTCGAGACGTGCTAG: 1.23 z-score
GACGGAATGGACTATCGGGACGTGCTA: -0.209 z-score
TTCTTTTCCATTTTGTGTTTGTGCTAG: 4.16 z-score
TTAGGTATCCTTTTCCTATAGTGCTAG: 8.03 z-score
TTAGGTATCGACTATCGGCTAGTGCTA: 0.267 z-score
TCAGATTTCGATTACAAACTGTGCTAG: 2.79 z-score

Study 3 — technique: RNA Bind-n-Seq; molecule type: RNA; medium: in vitro; tested at: 200 nM; notes: whole 134-nt RNA, ends assumed; with: 150 mM LiCl; relative to: input library; reading: higher = stronger binding; quantity: log2 enrichment; library: 7-deaza-guanosine replaces G
Target: Fragile X messenger ribonucleoprotein 1, C-terminal low-complexity region (Fmr1, Mus musculus, UniProt P35922)
Shared flanks, not repeated: GGGAGUUCUACAGUCCGACGAUC … UGGAAUUCUCGGGUGUCAAGG
UAACUUUAGAGGAGGAUCUGAUGGAUAUGGCAGUGGACGUGGAUUUUGGGAUGGCUAUAAUGGGUAUGGAGGAGGACCUGGAGGUGGCAA: -0.0126
CCUCAAGUCCUGUGCUACACAUCGUAUGUACCGAAUCGGCCGGCCGGGCCGGGAAAGUAUUAUGUUACGCCGUUCGGAUCUGCACUUCCA: 0.747
CACAGACAACAAAAACCCACACAGACACAGAGGGAAGGGGUUGGGAUGGGGACAGGGUGCACAGCAGGGCGGGGUAGGACCCCAGCCCCU: 0.543
CAAGUCCUGUGCUACACAUCGUAUGUACCGAAUCGGGUUUGGGUGGGAAAAAGGGAAAGUAUUAUGUUACGCCGUUCGGAUCUGCACUUC: -0.748
UGGCGCUGUCCUGGACUUGAUGGGGGAUGAAGCCCAGAACCUGACGAGGGGCCGGCAGCAGCUCAAGUGGUGAGUGAUCGAGUGAGCCGC: -1.66
GUCCUGUGCUACACAUCGUAUGUACCGAAUCGGGGCCCCCGGGCCCCCGGGCCCCCGGGAAAGUAUUAUGUUACGCCGUUCGGAUCUGCA: -2.95
CACAGACAACACGCACCCACACAGACACAGAGGGAAGGGGUUGGGAUGGGGACAGGGUGCACAGCAGGGCGGGGUAGGACCCCAGCCCUU: -0.0675
AGUCCUGUGCUACACAUCGUAUGUACCGAAUCGGGAAAAGGGAAAAGGGAAAAGGGGAAAGUAUUAUGUUACGCCGUUCGGAUCUGCACU: -0.661

Study 4 — target: TEF, bZIP domain (human); technique: DHFR protein complementation; medium: yeast; relative to: wild-type JUN-FOS pair; reading: higher = stronger binding; quantity: binding fitness
Notes: single substitutions, most at no-binding floor
Parent: JUN, bZIP domain (human); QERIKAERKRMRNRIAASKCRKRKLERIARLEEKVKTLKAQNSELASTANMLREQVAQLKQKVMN; partner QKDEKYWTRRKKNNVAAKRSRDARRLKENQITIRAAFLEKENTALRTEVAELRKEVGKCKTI
R30C: -1.47 natural log
A49N: -1.46 natural log
A46P: -1.44 natural log
K36T: -1.16 natural log
Q41I: -1.48 natural log
R30P: -1.55 natural log
S47H: -1.41 natural log
Q55R: -1.35 natural log
M51D: -1.35 natural log
E32P: -1.52 natural log
A49P: -1.53 natural log
N42Y: -1.49 natural log
T48I: -1.12 natural log
A46S: -1.47 natural log
A46L: -1.47 natural log
E33N: -1.53 natural log
Q41S: -1.49 natural log
A49V: -1.5 natural log
A46M: -1.25 natural log
R30V: -1.44 natural log
S43L: -1.11 natural log
R30N: -1.52 natural log
M51E: -1.51 natural log
V56R: -1.56 natural log

A few entries again (study 4):
A46L: -1.47 natural log
E33N: -1.53 natural log
Q41S: -1.49 natural log
A49V: -1.5 natural log
A46M: -1.25 natural log
R30V: -1.44 natural log
S43L: -1.11 natural log
R30N: -1.52 natural log
